Experimental data gathered from unrelated publications.
Each numbered part is a random draw from the data of one study; scales do not carry over between parts. Positions count from the first letter of the parent shown.

Block 1 — method: protein-binding microarray; form: double-stranded DNA, one strand shown; medium: in vitro; tested at: 0.8 µM; notes: whole 60-bp probe, no competitor; reading: higher = stronger binding; constant ends, left off below: … GTCTTGATTCGCTTGACGCTGCTG
Target: Centromere-binding protein 1, full length, N-terminal tag (CBF1, Saccharomyces cerevisiae, UniProt P17106, residues 1-351)
Sequence of UniProt P17106 (whole entry, looked up): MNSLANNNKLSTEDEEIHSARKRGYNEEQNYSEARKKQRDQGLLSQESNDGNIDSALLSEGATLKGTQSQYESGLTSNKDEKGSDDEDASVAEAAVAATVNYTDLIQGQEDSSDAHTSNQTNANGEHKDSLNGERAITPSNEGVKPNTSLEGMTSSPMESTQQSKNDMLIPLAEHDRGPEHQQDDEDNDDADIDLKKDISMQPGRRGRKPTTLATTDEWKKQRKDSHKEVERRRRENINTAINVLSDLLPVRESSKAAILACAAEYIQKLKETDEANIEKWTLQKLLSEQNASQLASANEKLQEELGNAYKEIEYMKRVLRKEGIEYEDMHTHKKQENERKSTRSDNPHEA
Sequence | fluorescence intensity
CTAGCTTAATGGAATAACGTGATTTTTGTACCATTC | 1430 a.u.
GAACACAATAGACATCATGAAAAGGTCCACGTTTAG | 555 a.u.
GAATTAGCTCATTCTGACGTCAACATCGAAACGTAG | 489 a.u.
CCTAACTACTATAGTGGTGTCGTATAGCTTCGTACA | 518 a.u.
GAAGCCAAAGTAAACCCCGTGTACTTTCAAAAGTAG | 793 a.u.
CTACACAGGCGGGGTAACATCAAAAGGATTTATTTC | 531 a.u.
CTATATATTATCGCGCAGGTGAGAGAGTCCTGGTTC | 589 a.u.
CTACGCATTTGGCATGGTGTGGTGATGTCTCTTTTC | 587 a.u.

Block 2 — Substitution: I12D; method: DHFR PCA, deep sequencing; medium: yeast; reference: wild-type fitted maximum; reading: higher = stronger binding
Target: ABI1, truncated, D143A, DHFR fusion (Arabidopsis thaliana)
Notes: methotrexate growth selection, single substitutions
Starting sequence: PYL1, truncated, DHFR fusion (Arabidopsis thaliana); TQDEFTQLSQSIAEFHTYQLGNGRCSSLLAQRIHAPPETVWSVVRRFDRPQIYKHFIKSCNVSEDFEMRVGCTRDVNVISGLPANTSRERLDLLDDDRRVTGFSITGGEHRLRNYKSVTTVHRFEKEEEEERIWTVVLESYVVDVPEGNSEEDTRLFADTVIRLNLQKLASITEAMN
together with | relative binding score [%]
(+)-ABA 0.39 µM | -3.09
(+)-ABA 17 µM | -8.82
(+)-ABA 58 µM | 0.114
(+)-ABA 0.11 µM | -3.1
(+)-ABA 0.0091 µM | 0.393
(+)-ABA 0 µM | -1.4

Mixed results
Substance | tested on | assay | test system | setting | scale | measurement | value
COc1ccc(-c2c(Nc3ccccn3)[nH]c3c(C4=CCCCC4)c(-c4ccccc4)nn3c2=O)cc1 |  | LC-MS/MS non-compartmental | human, plasma | oral, 200 mg twice daily, cycle 1 |  | terminal elimination rate constant | 1.23e-06 s⁻¹
CC(C)n1cnc(-c2ccc(F)cc2)c1-c1ncc(C(=O)Nc2ccc(N3CCN(C)CC3)cc2)[nH]1 |  | phase 2a trial, measured: appendicitis | idiopathic pulmonary fibrosis patients | 30 mg once daily, grade 2 |  | adverse event incidence | 0%
PhoQ, residues 284 288 289 292 302 303 TTCLQL | PhoP, residues 12 14 15 18 19 FWNTL (Escherichia coli, UniProt P23836) | Sort-seq, measured: YFP reporter | E. coli | PhoQ-PhoP variant library, together with: 10 µM Mg2+ | reference: high Mg2+ state, higher = stronger signaling | fold induction | 12.3
CC(=O)N[C@@H](Cc1c[nH]c2ccccc12)C(=O)N[C@@H](CCC(=O)C=[N+]=[N-])C(=O)OC(C)C |  | histopathology | mouse C57BL/6 CES1-/-, GI tissue | subcutaneous, 0.26 mg/kg | direction not given | GI epithelial change score | 0

Some of these lines once more (block 1):
Sequence | fluorescence intensity
CTAGCTTAATGGAATAACGTGATTTTTGTACCATTC | 1430 a.u.
CCTAACTACTATAGTGGTGTCGTATAGCTTCGTACA | 518 a.u.
